Measurements pooled from the literature.
Parts stem from different laboratories: compare values within a part only.
UniProt O14965, sequence (whole entry, looked up): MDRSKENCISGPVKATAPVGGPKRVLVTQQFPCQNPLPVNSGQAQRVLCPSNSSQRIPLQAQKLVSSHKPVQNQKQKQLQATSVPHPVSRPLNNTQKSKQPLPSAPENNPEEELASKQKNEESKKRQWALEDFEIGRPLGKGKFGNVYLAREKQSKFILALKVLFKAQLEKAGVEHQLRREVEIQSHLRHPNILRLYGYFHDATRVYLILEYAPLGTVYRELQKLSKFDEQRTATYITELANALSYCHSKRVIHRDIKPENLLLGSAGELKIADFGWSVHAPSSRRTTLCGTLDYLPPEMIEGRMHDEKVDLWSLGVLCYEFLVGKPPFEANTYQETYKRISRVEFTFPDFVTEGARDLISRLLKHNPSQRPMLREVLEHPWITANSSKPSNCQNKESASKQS

Study 1
Target: Sal-like protein 4, full length isoform B (SALL4, Homo sapiens, UniProt Q9UJQ4-2, residues 1-616)
Method: universal PBM
Molecule type: double-stranded DNA, one strand shown
Medium: in vitro
Tested at: not given
Setting: 8-mer, flanks averaged, mean of replicates
Direction: higher = stronger binding
Target sequence (chain): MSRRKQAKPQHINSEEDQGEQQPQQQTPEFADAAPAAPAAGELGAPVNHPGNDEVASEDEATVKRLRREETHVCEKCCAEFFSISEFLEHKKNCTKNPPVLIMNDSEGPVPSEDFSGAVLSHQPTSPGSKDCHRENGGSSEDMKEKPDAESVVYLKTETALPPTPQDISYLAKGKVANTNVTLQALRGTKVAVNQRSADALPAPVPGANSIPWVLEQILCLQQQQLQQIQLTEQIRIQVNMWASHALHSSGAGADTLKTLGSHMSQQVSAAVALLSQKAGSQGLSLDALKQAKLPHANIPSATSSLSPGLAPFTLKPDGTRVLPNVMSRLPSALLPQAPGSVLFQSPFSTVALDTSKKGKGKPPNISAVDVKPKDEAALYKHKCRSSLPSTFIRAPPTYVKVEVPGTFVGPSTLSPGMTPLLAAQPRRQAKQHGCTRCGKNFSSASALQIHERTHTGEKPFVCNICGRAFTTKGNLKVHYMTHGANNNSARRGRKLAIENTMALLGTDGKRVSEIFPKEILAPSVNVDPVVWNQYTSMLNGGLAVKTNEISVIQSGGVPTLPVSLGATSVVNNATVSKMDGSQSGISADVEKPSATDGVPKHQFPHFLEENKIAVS
Sequence	E-score
AACCTGCC	-0.127
GGGAATAC	-0.0103
GACTATTA	0.188
GATGATCC	-0.0319
TAAACGAA	0.209
ACGGCTGA	-0.14
CACCATAA	0.255
AAGTCTGT	0.141

Study 2
Target: Interferon regulatory factor 1, DNA-binding domain (IRF1, Homo sapiens, UniProt P10914, residues 1-114)
Method: protein-binding microarray
Molecule type: hairpin DNA
Medium: in vitro
Tested at: not given
Setting: whole hairpin DNA, median over replicate spots
Baseline: not given
Direction: higher = stronger binding
All sequences stand within: GAGGCCCG … CGGGCCTCACAC
Construct (chain): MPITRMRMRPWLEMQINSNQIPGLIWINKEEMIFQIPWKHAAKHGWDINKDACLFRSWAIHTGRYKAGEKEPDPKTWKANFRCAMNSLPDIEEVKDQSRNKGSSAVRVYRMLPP
Sequence	median fluorescence
AAAGTGAACGGCCTCCTGGCCGTTCACTTT	536 a.u.
AAAGCGAACCGCCTCCTGGCGGTTCGCTTT (5mC at 17)	536 a.u.
AAAGCGAAGCGCCTCCTGGCGCTTCGCTTT	534 a.u.
AAAGCCAAACGCCTCCTGGCGTTTGGCTTT	524 a.u.
AAAGCGACGCGCCTCCTGGCGCGTCGCTTT (5mC at 30)	522 a.u.
AAAGTGATACGCCTCCTGGCGTATCACTTT	524 a.u.
AAACGGAAACGCCTCCTGGCGTTTCCGTTT (5mC at 34)	532 a.u.
CGAGTGAAACGCCTCCTGGCGTTTCACTCG (5mC at 9)	530 a.u.

Study 3
Target: Interferon regulatory factor 5, full length, phosphomimetic (IRF5, Homo sapiens, UniProt Q13568-2, residues 1-514, S451D/S453D/S456D/S462D)
Method: protein-binding microarray
Molecule type: double-stranded DNA, one strand shown
Medium: in vitro
Tested at: 940 nM top
Setting: 60-bp whole probe
Added: salmon DNA 0.4 mg/ml
Baseline: random background probes
Direction: higher = stronger binding
All sequences stand within: GCCTAGCAC … GTCTTGATTCGCTTGACGCTGCTG
Sequence	fitted relative affinity
TTAGATCTCAGTATCGAATAGTGCTAG	1.88 z-score
TATGCTTTCTTTAACTCATTGTGCTAG	1.26 z-score
TTAGAACTGAGTATCGAATAGTGCTAG	0.654 z-score
GTAGGTTTCGGGTATCGGTTAGTGCTA	10.6 z-score
TTAGGTTTCGGGACTGGGTTTGTGCTA	8.32 z-score
TAAGGTTTCCTACTGCTTTAGTGCTAG	0.725 z-score
GACCGTTTCGGTATCGGGACGTGCTAG	7.96 z-score
GACGATTCCAGTTTCGCGACGTGCTAG	1.53 z-score

Single results of other studies
Structure (SMILES)	target	assay	conditions	scale	quantity	result
CN(C)C[C@H]1CCn2c(c(C3=C(c4cn(C)c5ccccc45)C(=O)NC3=O)c3ccccc32)C1	Aurora kinase A (AURKA, Homo sapiens, UniProt O14965)	enzyme activity, inhibitor	0.5 µM	baseline: control	remaining activity	87.7%

Repeated from above (study 2):
Sequence	median fluorescence
AAAGTGATACGCCTCCTGGCGTATCACTTT	524 a.u.
AAACGGAAACGCCTCCTGGCGTTTCCGTTT (5mC at 34)	532 a.u.
CGAGTGAAACGCCTCCTGGCGTTTCACTCG (5mC at 9)	530 a.u.
